Assay results of several laboratories.
Lines come from different studies, so protocols differ. “And” joins repeats or separate records; there may be more than shown. ± marks the error that the study gave.
NEK11: Serine/threonine-protein kinase Nek11 (NEK11, Homo sapiens, UniProt Q8NG66)
UniProt Q8NG66, sequence (whole entry, looked up): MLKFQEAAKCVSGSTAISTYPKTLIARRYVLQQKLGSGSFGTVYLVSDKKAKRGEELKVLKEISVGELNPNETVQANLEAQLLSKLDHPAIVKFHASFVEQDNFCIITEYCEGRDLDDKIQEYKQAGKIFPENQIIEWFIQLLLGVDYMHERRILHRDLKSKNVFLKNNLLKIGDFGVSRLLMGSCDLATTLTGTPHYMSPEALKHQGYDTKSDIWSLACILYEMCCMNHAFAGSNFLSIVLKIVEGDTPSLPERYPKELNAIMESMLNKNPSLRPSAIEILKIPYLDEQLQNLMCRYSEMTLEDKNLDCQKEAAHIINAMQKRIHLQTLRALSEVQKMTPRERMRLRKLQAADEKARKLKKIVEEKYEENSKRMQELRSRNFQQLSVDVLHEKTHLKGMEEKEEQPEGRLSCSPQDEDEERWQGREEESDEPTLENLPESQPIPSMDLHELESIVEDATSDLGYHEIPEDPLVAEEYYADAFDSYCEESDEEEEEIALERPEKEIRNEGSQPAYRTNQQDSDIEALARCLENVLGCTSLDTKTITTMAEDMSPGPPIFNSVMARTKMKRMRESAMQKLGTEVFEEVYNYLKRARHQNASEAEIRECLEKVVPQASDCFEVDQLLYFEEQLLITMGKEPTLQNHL
FLT1: Vascular endothelial growth factor receptor 1 (FLT1, Homo sapiens, UniProt P17948)
UniProt P17948, sequence (whole entry, looked up): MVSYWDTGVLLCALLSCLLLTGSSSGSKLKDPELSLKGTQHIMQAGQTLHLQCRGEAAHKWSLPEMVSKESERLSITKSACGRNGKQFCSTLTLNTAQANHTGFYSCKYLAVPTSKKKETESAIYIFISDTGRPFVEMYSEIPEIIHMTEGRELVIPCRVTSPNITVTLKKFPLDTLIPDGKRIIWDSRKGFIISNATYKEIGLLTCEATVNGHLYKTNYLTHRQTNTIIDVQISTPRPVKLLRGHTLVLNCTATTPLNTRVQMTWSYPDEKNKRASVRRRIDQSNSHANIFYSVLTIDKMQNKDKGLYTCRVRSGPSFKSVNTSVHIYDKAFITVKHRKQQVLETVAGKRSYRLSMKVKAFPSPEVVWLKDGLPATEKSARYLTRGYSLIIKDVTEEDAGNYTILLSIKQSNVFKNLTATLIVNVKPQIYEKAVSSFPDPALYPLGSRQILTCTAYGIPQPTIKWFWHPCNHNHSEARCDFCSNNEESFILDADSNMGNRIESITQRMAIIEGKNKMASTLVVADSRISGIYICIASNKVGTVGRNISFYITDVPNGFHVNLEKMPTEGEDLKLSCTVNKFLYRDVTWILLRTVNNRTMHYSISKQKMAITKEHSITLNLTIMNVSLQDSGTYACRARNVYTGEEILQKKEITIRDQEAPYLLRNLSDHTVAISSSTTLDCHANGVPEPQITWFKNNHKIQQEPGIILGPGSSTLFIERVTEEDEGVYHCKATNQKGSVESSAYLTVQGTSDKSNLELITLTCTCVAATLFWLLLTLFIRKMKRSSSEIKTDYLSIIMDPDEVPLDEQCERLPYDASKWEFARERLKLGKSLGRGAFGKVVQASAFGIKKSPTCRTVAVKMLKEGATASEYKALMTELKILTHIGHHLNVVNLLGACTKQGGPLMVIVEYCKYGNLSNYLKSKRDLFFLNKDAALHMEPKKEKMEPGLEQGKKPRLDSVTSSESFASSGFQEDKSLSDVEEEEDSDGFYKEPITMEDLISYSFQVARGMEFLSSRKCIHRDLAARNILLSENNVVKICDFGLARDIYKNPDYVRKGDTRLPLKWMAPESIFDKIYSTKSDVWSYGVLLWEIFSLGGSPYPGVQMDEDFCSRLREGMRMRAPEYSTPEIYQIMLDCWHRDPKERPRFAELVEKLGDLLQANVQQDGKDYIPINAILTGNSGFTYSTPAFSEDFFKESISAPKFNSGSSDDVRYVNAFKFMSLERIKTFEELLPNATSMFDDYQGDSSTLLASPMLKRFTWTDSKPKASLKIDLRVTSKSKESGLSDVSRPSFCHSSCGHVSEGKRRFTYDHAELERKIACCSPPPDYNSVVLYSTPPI
NEK2: Serine/threonine-protein kinase Nek2 (NEK2, Homo sapiens, UniProt P51955)
UniProt P07202, sequence (whole entry, looked up): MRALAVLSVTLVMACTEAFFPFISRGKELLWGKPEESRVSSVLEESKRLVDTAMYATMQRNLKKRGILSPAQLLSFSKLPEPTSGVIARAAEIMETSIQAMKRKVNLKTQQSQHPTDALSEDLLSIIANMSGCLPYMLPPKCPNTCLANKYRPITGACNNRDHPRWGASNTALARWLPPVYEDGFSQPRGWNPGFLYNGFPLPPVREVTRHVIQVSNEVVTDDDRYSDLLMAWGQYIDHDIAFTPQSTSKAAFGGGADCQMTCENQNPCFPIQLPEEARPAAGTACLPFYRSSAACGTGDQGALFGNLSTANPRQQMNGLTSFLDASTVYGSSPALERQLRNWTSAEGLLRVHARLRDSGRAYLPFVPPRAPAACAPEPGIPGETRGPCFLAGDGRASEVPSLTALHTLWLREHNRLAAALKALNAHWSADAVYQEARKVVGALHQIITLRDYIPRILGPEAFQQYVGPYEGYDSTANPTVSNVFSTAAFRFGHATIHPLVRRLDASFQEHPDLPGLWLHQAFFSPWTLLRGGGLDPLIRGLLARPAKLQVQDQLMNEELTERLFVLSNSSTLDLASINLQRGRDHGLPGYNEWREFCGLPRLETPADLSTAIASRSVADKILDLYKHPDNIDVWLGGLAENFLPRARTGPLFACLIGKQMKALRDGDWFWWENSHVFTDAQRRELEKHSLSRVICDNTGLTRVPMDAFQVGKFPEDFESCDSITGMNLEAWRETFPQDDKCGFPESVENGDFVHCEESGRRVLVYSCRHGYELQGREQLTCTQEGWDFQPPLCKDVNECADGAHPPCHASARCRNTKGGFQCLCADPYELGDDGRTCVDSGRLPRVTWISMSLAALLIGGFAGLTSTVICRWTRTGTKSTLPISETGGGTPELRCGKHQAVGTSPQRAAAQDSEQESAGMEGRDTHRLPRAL
UniProt P51955, sequence (whole entry, looked up): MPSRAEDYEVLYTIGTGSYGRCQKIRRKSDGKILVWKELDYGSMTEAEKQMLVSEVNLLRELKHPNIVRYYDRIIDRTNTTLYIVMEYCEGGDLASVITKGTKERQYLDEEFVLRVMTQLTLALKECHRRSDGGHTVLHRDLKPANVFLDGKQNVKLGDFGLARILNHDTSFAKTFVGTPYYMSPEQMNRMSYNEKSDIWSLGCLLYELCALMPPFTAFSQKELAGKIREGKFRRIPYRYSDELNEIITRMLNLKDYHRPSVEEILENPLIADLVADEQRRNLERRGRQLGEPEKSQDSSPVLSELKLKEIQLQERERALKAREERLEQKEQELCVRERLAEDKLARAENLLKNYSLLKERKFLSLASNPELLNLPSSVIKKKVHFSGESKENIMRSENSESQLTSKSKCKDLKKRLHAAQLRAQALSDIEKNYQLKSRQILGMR
UniProt Q9Y345, sequence (whole entry, unmodified, looked up): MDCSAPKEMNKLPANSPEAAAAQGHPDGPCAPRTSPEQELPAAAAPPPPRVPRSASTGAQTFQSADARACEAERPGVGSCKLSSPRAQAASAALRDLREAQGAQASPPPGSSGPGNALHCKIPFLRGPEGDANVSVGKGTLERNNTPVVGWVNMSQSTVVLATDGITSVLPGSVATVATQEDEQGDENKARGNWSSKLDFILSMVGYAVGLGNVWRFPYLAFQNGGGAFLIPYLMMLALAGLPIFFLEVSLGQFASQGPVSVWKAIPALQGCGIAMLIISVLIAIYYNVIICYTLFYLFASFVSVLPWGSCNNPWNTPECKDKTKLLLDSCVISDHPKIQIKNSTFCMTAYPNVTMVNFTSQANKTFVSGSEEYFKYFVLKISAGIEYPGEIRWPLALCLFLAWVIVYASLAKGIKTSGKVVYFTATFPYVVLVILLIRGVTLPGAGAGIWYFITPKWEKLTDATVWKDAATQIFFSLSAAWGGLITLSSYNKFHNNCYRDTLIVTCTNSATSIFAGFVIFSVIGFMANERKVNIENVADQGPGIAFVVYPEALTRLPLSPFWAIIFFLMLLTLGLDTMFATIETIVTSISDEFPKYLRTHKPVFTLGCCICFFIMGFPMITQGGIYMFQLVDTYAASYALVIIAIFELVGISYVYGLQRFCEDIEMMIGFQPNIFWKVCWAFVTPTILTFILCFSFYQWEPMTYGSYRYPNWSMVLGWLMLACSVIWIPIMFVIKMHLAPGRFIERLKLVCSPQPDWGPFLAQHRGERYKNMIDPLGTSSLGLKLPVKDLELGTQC
UniProt P43250, sequence (whole entry, looked up): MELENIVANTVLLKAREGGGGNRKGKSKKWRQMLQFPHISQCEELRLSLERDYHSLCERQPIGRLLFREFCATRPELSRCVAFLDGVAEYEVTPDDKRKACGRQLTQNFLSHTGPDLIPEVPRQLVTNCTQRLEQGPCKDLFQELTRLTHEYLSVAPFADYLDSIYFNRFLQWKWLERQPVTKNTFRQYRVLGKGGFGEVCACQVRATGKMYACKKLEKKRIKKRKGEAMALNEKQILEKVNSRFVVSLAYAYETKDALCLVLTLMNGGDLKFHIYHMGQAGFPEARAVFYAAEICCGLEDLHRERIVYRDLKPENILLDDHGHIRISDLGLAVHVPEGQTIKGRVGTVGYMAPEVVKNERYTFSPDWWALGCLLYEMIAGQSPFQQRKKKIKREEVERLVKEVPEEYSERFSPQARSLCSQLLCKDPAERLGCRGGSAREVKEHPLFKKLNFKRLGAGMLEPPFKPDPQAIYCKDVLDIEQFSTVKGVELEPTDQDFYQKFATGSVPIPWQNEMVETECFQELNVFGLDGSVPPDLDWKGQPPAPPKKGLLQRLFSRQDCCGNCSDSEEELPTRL
UniProt P30043, sequence (whole entry, looked up): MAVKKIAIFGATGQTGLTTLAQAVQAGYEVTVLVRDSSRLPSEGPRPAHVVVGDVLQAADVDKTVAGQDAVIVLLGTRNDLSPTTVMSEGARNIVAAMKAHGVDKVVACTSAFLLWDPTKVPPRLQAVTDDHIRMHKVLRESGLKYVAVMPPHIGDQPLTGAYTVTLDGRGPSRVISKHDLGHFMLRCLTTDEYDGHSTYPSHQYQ

Compound | tested on | test | conditions | scale | endpoint | result
O=C(O)Cc1nc2ccccc2o1 | Ubiquitin carboxyl-terminal hydrolase 39, ZnF-UBD domain (Homo sapiens, UniProt Q53GS9) | – | – | – | Kd | > 1000 µM
COc1cc(-c2cncc3c2CN(C)Cc2cc(N4CCNCC4)ccc2-3)cc(OC)c1OC | NEK11 | kinase activity | 1 µM, human enzyme, with: ATP 10 µM | relative to: DMSO control | remaining activity | 112%
O=C(O)c1ccc(Nc2ncc3c(n2)-c2ccc(Cl)cc2C(c2c(F)cccc2F)=NC3)cc1 | GSK3α(h) | kinase activity | 1 µM | – | remaining activity | 110%
Cc1cnc(NC2CCOCC2)nc1-n1cnc(C(=O)NC(CN)c2cc(F)cc(Cl)c2)c1 (stereo not shown) | PI3K p110alpha/p65alpha (mouse) | enzyme activity, inhibitor, radiometric kinase | 1 µM | – | remaining activity | 100%
CC(=O)N[C@H]1C(O)O[C@H](CO)[C@@H](O)[C@@H]1O[C@H](C)C(=O)O (stereo partly shown) | – | binding, equilibrium dialysis LC-MS | 5 µM, thermostabilized A2AR-BRIL construct | relative to: no-protein control, direction not given | z-scored log2 fold change | -0.494
c1cnc2ccc(Nc3nc(NC4CC4)c4nc[nH]c4n3)cc2c1 | FLT1 | kinase activity, inhibitor, SelectScreen kinase profiling | 1 µM | relative to: control | remaining activity | 101%
COc1cc(Nc2ncc3c(n2)-c2ccc(Cl)cc2C(c2c(F)cccc2OC)=NC3)ccc1C(=O)O | JAK3 | kinase activity | 1 µM | – | remaining activity | 96%
Cc1cc(NC(=O)c2cccc(NC(=O)/C=C/CN(C)C)c2)ccc1Nc1nccc(-c2cccnc2)n1 | Mitogen-activated protein kinase 8 (MAPK8, Homo sapiens, UniProt P45983) | enzyme activity, inhibitor | 0.06097 µM, 6 h, unit not given, with: GSH 10 mM pre-incubation | relative to: vehicle | remaining activity | 0.986
COc1cc(F)ccc1-c1ncnc(Nc2cccc(C[S@](C)(=N)=O)c2)n1 | NEK11 | kinase activity | 10 µM, with: 10 µM ATP | – | remaining activity | 73%
O=C(O)CNc1ncccn1 | Ubiquitin carboxyl-terminal hydrolase 49, ZnF-UBD domain (USP49, Homo sapiens, UniProt Q70CQ1) | – | – | – | Kd | > 1000 µM
Nc1ncnc2c1ncn2C1OC(CSCCNCc2cccc(-c3ccccc3)c2)C(O)C1O (stereo not shown) | DNA adenine methyltransferase CamA (Clostridioides difficile, UniProt Q183J3) | – | 10 µM | – | remaining activity | 11.7%
COc1cc(N2CCN(C)CC2)ccc1Nc1nc(N)n(C(=O)NCc2c(Cl)cccc2Cl)n1 | Ephrin type-B receptor 6 (EPHB6, Homo sapiens, UniProt O15197) | enzyme activity | 10 µM | relative to: control | remaining activity | 0%
CNc1ncc2c(/C=C/C(=O)N3CCC(OC)CC3)nn(Cc3cccc(C(F)(F)F)c3)c2n1 | Serine/threonine-protein kinase NLK (NLK, Homo sapiens, UniProt Q9UBE8) | kinase activity, inhibitor | 1 µM | relative to: untreated control | remaining activity | 89%
NC/C(=C\F)COc1cccc(Cn2c(=S)[nH]c(=O)c3[nH]cnc32)c1 | Thyroid peroxidase (Homo sapiens, UniProt P07202) | ascorbate oxidation | 1.875 µM | relative to: control | remaining activity | 31% and 102% and 71.4%
C[C@@H](Oc1ccc(S(C)(=O)=O)cc1C(=O)N1C[C@@H]2C[C@]2(c2cc(C(F)(F)F)on2)C1)C(F)(F)F | Sodium- and chloride-dependent glycine transporter 1 (SLC6A9, Homo sapiens, UniProt P48067, G373S) | glycine uptake, inhibitor, [3H]glycine uptake | 0.003 µM, G319S mutant, log concentration 3, with: [3H]glycine | relative to: no inhibitor | remaining activity | 82.4%
Cc1cc(Nc2cc(N3CCN(C)CC3)nc(Sc3ccc(NC(=O)C4CC4)cc3)n2)[nH]n1 | G protein-coupled receptor kinase 5 (GRK5, Homo sapiens, UniProt P34947) | kinase activity, KinaseProfiler | 0.03 µM, species human | relative to: control | remaining activity | 97%

Compound | tested on | test | conditions | scale | endpoint | result
COc1cc(N2CCN(C)CC2)ccc1Nc1nc(N)n(C(=S)NCc2c(Cl)cccc2Cl)n1 | Mast/stem cell growth factor receptor Kit (KIT, Homo sapiens, UniProt P10721, L576P) | enzyme activity | 10 µM | relative to: control | remaining activity | 0%
C[C@H]1CCC[C@@H](C(=O)Nc2nnc(S(N)(=O)=O)s2)C1 (racemic) | Alpha-carbonic anhydrase (Enterococcus faecium, UniProt Q3XYE8) | CO2 hydration, inhibitor, stopped-flow kinetics | – | – | Ki | 0.0493 µM
CN(C)CC#Cc1ccc2[nH]c3c(c2c1)-c1nc(N)ncc1CCC3 | Serine/threonine-protein kinase PAK 3 (PAK3, Homo sapiens, UniProt O75914) | kinase activity, inhibitor, radiometric | 1 µM, with: ATP at Km | – | remaining activity | 81%
C=CC(=O)N1CCC([C@@H]2CCNc3c(C(N)=O)c(-c4ccc(Oc5ccccc5)cc4)nn32)CC1 | Tyrosine-protein kinase Yes (YES1, Homo sapiens, UniProt P07947) | kinase activity, inhibitor, HotSpot radiometric | 100 nM, with: ATP 10 µM | – | remaining activity | 67 ± 0.4%
C=CC(=O)N1CCC[C@@H](n2nc(-c3ccc(Oc4ccccc4)cc3)c3c(N)ncnc32)C1 | FLT1 | – | 1 µM | – | remaining activity | 42%
O=c1ccn([C@@H]2O[C@H](COP(=O)(O)OP(=O)(O)O)[C@@H](O)[C@H]2O)c(=O)[nH]1 | – | binding, equilibrium dialysis LC-MS | 5 µM, thermostabilized A2AR-BRIL construct | relative to: no-protein control, direction not given | z-scored log2 fold change | -6.4
CNCC(=O)O | Sodium- and chloride-dependent glycine transporter 2 (Homo sapiens, UniProt Q9Y345, S479G) | glycine uptake, inhibitor, [3H]glycine uptake | 2000 µM, S479G mutant, log concentration 2, with: [3H]glycine | relative to: no inhibitor | remaining activity | 44.4%
O=C(O)c1cccc(-c2noc(-c3ccccc3F)n2)c1 | Flavin reductase (NADPH) (BLVRB, Homo sapiens, UniProt P30043) | enzyme activity, inhibitor | 0.25 µM | – | remaining activity | 60%
COc1ccc(F)cc1C(=O)NCc1ccc(-c2nn([C@@H](C)C(F)(F)F)c(N)c2C(N)=O)cc1 | Tyrosine-protein kinase CSK (CSK, Homo sapiens, UniProt P41240) | kinase activity, inhibitor, HotSpot radiometric | 100 nM, with: ATP 10 µM | – | remaining activity | 79.7 ± 0.9%
Cc1[nH]c(/C=C2\C(=O)Nc3ccc(F)cc32)c(C)c1C(=O)N[C@H]1CCN(C(=O)N(C)C)C1 | Tyrosine-protein kinase SYK (SYK, Homo sapiens, UniProt P43405) | kinase activity, inhibitor | 0.1 µM | relative to: no-compound control | remaining activity | 105%
O=C1NC(=O)/C(=C/c2ccc(-c3ccc(F)cc3O)o2)S1 | NEK2 | enzyme activity | 10 µM | – | remaining activity | 136%
O=C(NC1CCC1)c1ccc2nc(-c3cccc(NS(=O)(=O)NCCN4CCCCC4)c3)cn2c1 | NEK2 | enzyme activity | 10 µM | – | remaining activity | 90%
Nc1nc(Nc2ccccc2)sc1C(=O)c1c(F)cccc1F | AMP-activated protein kinase | enzyme activity, inhibitor | 10 µM | – | remaining activity | 67%
C=CC(=O)N1CCC[C@@H](n2nc(-c3ccc(Oc4ccccc4)cc3)c3c(N)ncnc32)C1 | G protein-coupled receptor kinase 6 (GRK6, Homo sapiens, UniProt P43250) | kinase activity, inhibitor, HotSpot radiometric | 100 nM, with: ATP 10 µM | – | remaining activity | 95.3 ± 1%
Cc1ccc(NC(=O)c2ccc(C)c(C(F)(F)F)c2)cc1C#Cc1nn(C2CCC(O)CC2)c2ncnc(N)c12 (stereo not shown) | Phosphatidylinositol 4,5-bisphosphate 3-kinase catalytic subunit alpha isoform, with p65 alpha (Pik3ca, Mus musculus, UniProt P42337) | enzyme activity, inhibitor | 10 µM, p110a/p65a)(m mouse, with: ATP 10 µM | – | remaining activity | 94%

Some of these lines once more:
Compound | tested on | test | conditions | scale | endpoint | result
CC(=O)N[C@H]1C(O)O[C@H](CO)[C@@H](O)[C@@H]1O[C@H](C)C(=O)O (stereo partly shown) | – | binding, equilibrium dialysis LC-MS | 5 µM, thermostabilized A2AR-BRIL construct | relative to: no-protein control, direction not given | z-scored log2 fold change | -0.494
c1cnc2ccc(Nc3nc(NC4CC4)c4nc[nH]c4n3)cc2c1 | FLT1 | kinase activity, inhibitor, SelectScreen kinase profiling | 1 µM | relative to: control | remaining activity | 101%
COc1cc(Nc2ncc3c(n2)-c2ccc(Cl)cc2C(c2c(F)cccc2OC)=NC3)ccc1C(=O)O | JAK3 | kinase activity | 1 µM | – | remaining activity | 96%
Cc1cc(NC(=O)c2cccc(NC(=O)/C=C/CN(C)C)c2)ccc1Nc1nccc(-c2cccnc2)n1 | Mitogen-activated protein kinase 8 (MAPK8, Homo sapiens, UniProt P45983) | enzyme activity, inhibitor | 0.06097 µM, 6 h, unit not given, with: GSH 10 mM pre-incubation | relative to: vehicle | remaining activity | 0.986
